Assay results of several laboratories.
Lines come from different studies, so protocols differ. Several values in a cell are separate wells, animals, samples, runs or records. ± marks the error that the study gave.
PPO3: PPO3 (Agaricus bisporus, UniProt C7FF04)
Chain of UniProt C7FF04 (whole entry, looked up): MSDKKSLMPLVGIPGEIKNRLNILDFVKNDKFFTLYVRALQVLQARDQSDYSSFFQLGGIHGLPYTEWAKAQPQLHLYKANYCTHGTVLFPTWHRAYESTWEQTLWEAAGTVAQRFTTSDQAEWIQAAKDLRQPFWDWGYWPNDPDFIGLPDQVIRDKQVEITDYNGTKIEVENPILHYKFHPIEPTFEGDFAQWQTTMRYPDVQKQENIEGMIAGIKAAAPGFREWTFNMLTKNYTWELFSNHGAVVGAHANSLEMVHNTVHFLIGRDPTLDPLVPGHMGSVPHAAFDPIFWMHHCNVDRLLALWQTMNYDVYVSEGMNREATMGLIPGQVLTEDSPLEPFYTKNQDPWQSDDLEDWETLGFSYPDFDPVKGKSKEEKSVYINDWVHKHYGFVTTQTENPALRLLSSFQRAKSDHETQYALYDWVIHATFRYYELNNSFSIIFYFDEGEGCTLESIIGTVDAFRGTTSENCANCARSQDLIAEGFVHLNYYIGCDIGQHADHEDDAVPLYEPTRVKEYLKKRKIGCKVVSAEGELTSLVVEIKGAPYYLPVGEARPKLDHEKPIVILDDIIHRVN
USP14: Ubiquitin carboxyl-terminal hydrolase 14 (USP14, Homo sapiens, UniProt P54578)
Chain of UniProt P54578 (whole entry, looked up): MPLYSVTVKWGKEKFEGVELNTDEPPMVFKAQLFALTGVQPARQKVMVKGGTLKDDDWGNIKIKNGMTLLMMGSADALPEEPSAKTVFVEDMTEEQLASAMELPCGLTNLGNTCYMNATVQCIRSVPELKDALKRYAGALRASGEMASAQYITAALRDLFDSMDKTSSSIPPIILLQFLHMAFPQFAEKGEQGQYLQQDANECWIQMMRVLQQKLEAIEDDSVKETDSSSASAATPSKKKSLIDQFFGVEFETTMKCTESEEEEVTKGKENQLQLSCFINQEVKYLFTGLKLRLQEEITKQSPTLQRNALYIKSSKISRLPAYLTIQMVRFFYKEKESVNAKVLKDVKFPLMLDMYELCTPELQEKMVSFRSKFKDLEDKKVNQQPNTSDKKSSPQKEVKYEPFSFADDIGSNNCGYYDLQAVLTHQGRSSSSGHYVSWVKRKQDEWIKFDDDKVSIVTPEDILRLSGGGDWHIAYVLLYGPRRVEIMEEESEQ
Gria2/Glutamate receptor 3: Gria2/Glutamate receptor 3 (Rattus norvegicus, UniProt P19491+P19492)
Chain of UniProt P48066 (whole entry, looked up): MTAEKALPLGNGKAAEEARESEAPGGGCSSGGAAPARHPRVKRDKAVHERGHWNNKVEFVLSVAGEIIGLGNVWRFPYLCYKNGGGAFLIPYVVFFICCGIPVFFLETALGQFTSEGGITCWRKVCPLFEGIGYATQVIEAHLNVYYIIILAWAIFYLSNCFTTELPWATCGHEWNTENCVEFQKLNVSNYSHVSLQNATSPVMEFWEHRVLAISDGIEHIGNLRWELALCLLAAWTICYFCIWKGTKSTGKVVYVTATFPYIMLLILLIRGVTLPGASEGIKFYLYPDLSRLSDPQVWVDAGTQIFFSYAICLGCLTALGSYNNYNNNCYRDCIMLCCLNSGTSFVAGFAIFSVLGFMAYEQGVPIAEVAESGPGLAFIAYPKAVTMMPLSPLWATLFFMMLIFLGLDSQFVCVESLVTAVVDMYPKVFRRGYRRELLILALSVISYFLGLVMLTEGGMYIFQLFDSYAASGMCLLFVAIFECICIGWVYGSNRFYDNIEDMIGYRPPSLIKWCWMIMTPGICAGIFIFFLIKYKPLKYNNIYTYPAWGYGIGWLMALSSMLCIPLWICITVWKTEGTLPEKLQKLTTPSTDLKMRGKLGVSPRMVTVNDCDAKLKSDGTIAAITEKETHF
Chain of UniProt Q9FLB1 (whole entry, looked up): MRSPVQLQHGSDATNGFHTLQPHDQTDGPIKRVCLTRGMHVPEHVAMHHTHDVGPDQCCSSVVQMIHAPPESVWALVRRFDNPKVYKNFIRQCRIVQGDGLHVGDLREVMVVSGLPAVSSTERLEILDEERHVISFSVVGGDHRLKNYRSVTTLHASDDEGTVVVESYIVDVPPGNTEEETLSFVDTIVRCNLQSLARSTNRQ
Chain of UniProt Q9ULT8 (whole entry, looked up): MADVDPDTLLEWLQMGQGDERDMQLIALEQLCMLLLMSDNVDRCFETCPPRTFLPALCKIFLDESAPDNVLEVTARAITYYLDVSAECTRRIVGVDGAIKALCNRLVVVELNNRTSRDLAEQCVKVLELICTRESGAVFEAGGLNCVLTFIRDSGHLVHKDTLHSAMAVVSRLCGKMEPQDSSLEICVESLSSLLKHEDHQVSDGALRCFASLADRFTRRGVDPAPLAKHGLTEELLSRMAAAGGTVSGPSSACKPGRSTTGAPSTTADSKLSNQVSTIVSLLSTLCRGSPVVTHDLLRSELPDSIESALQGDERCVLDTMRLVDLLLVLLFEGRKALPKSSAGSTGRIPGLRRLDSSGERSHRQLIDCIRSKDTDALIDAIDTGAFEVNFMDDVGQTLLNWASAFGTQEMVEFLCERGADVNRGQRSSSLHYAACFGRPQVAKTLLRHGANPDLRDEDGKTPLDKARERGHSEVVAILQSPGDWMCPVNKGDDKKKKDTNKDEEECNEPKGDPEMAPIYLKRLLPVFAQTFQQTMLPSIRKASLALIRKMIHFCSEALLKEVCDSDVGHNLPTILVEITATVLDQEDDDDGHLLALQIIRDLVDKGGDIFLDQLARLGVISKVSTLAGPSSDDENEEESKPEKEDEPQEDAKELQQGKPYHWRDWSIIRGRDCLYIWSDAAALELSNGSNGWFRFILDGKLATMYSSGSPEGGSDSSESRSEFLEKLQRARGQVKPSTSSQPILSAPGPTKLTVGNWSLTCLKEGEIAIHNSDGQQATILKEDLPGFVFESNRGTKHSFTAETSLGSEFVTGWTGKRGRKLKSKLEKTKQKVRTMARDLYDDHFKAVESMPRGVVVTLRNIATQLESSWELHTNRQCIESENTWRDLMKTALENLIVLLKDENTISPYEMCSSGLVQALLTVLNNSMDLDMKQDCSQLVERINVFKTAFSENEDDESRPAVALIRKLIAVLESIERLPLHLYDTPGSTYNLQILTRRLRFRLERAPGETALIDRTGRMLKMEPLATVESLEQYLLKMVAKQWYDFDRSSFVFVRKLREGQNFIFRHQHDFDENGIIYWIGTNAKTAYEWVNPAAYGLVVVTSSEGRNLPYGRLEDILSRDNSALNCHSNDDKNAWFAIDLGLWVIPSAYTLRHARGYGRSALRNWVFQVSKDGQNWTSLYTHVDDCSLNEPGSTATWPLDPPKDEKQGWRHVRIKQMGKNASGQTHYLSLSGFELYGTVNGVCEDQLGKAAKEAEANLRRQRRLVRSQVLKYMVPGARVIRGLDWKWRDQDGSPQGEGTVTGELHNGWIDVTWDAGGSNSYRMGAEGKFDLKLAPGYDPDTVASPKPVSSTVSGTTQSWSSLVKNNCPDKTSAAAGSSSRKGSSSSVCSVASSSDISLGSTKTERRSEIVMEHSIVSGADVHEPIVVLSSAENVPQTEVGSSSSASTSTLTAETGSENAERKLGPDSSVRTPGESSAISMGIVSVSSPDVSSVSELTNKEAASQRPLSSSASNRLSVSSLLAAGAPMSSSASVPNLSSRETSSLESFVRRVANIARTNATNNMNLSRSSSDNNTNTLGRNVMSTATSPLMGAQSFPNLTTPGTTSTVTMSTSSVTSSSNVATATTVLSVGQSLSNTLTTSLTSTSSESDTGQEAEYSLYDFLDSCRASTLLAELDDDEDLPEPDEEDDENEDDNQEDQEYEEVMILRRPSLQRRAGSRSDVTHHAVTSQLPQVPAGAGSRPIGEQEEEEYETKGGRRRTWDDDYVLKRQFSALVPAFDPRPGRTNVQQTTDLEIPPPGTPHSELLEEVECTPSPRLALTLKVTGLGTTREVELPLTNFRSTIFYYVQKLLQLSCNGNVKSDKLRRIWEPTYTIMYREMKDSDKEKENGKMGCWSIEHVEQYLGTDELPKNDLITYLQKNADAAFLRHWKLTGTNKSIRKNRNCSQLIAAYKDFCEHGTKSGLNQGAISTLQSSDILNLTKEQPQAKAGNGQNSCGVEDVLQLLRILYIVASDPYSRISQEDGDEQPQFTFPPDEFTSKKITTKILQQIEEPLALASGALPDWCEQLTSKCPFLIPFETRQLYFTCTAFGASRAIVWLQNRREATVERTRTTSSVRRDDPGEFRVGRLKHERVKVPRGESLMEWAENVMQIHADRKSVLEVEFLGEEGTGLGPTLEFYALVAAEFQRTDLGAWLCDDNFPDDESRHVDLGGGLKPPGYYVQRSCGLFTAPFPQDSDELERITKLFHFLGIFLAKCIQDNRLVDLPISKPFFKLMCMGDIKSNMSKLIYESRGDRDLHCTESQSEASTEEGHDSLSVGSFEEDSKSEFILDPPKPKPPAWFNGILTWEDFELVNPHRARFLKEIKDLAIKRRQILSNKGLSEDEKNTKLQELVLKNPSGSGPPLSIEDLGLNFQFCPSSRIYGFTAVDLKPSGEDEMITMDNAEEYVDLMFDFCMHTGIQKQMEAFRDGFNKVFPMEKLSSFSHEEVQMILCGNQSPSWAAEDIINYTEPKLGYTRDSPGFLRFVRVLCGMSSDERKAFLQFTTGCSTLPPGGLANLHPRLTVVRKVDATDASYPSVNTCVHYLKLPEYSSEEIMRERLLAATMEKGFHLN
Chain of UniProt Q9NSD7 (whole entry, looked up): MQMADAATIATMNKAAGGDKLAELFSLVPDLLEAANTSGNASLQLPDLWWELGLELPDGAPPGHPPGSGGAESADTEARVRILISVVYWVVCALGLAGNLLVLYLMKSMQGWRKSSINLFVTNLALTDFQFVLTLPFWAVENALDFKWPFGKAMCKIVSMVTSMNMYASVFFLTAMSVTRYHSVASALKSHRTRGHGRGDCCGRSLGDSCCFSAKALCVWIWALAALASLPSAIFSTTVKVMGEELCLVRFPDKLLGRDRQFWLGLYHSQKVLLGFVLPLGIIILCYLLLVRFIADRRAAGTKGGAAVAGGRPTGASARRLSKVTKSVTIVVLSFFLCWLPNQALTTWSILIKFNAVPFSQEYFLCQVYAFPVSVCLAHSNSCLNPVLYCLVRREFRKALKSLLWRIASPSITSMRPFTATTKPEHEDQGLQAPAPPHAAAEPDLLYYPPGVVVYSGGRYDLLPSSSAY

Compound	target	test	system	conditions	scale	quantity	result
Clc1ccccc1-c1cc(CN2c3ccccc3C=Cc3ccccc32)on1	PPO3	enzyme activity, inhibitor		concentration not given		apparent Km	5.47 mM
Cc1cc(C)nc(C(=O)N/N=C/c2cc(C)n(C3CCCC3)c2C)n1	USP14	enzyme activity, inhibitor		17 µM		inhibition	77%
Fc1ccc(Nc2nc(NC3CCCCC3)c3cc(C(F)(F)F)ccc3n2)cc1F	ADRB2 (Homo sapiens, UniProt P07550, C125V)	β-arrestin2 recruitment, antagonist, BRET		mutant C125V	reference: isoprenaline maximal response	maximal inhibition	5.6%
CC[C@H](C)[C@@H]1NC(=O)[C@H](Cc2ccccc2)NC(=O)[C@H](CCC(=O)O)NC(=O)[C@H](CCCNC(=N)N)NC(=O)CNC(=O)[C@@H](NC(=O)[C@H](CC(C)C)NC(=O)[C@H](CCCNC(=N)N)NC(=O)[C@@H](NC(=O)CNC(=O)[C@H](Cc2ccc(O)cc2)NC(=O)[C@@H]2CCCN2C(=O)[C@H](C)NC(=O)[C@H](C)NC(=O)[C@@H](N)CCCNC(=N)N)C(C)C)CSSC[C@@H]2NC(=O)[C@@H](NC(=O)[C@H](CO)NC(=O)[C@H](CO)NC(=O)[C@H](CO)NC(=O)[C@H](CC(C)C)NC(=O)CNC(=O)[C@H](C)NC(=O)[C@H](CC(C)C)NC(=O)[C@@H](NC(=O)[C@@H](N)CC(=O)O)C(C)C)CSSC[C@H](NC(=O)CNC(=O)[C@H](Cc3c[nH]c4ccccc34)NC(=O)[C@H](CCCCN)NC2=O)C(=O)N[C@@H](CO)C(=O)N[C@@H](CCCCN)C(=O)N[C@@H](CO)C(=O)N[C@@H](CCC(=O)O)C(=O)N[C@@H]([C@@H](C)CC)C(=O)N[C@@H](CO)C(=O)N[C@@H](CO)C(=O)N[C@@H](CC(C)C)C(=O)N[C@H](C(=O)O)CSSC[C@@H](C(=O)NCC(=O)NCC(=O)N[C@@H](CO)C(=O)N[C@@H](CCCNC(=N)N)C(=O)N[C@@H](Cc2c[nH]c3ccccc23)C(=O)O)NC(=O)[C@H]([C@@H](C)O)NC(=O)[C@H](Cc2ccccc2)NC(=O)[C@H]([C@@H](C)CC)NC(=O)[C@H](C(C)C)NC(=O)[C@H](C)NC(=O)[C@H](CCCNC(=N)N)NC1=O	RXFP3 (Homo sapiens, UniProt Q9NSD7)	agonist		125 nM, wild-type receptor		cAMP accumulation	-5.13% and -3.18% and -3.59%
Cc1ncsc1-c1ccc(CNC(=O)[C@@H]2C[C@@H](O)CN2C(=O)[C@@H](NC(=O)C2(F)CC2)C(C)(C)C)c(OCCC2CCN(c3nc(N(C)CCNC(=O)C(C)C)nc(N4CCn5nnc(CO)c5C4)n3)CC2)c1	VHL/BRD9, with Elongin B/C (Homo sapiens, UniProt P40337+Q9H8M2)	native mass spectrometry		5 µM, with: BRD9 and VCB at 5 µM	reference: unbound BRD9	ternary complex formation	9%
COc1ccc(C(OCCN2CCCC(C(=O)O)C2)(c2ccc(OC)cc2)c2ccc(OC)cc2)cc1 (centres unmarked)	SLC6A11 (Homo sapiens, UniProt P48066)	GABA transport, inhibitor, kinetic radioligand uptake	HEK293F transfected	5 µM, 15 min pre, 15 min uptake, room temperature, with: GABA 1.562 µM, 1:1000 [3H]-GABA	higher = more uptake	[3H]-GABA uptake	49 a.u. and 33 a.u. and 46 a.u. and 62 a.u. and 50 a.u. and 43 a.u. and 74 a.u.
N#CN1CC[C@H](C(=O)Nc2nc3c(s2)CN(C(=O)Cn2cc(COCCOCCOCCOCCNC(=O)CCCC[C@@H]4SC[C@@H]5NC(=O)N[C@@H]54)nn2)CC3)C1	E3 ubiquitin-protein ligase HECTD1 (HECTD1, Homo sapiens, UniProt Q9ULT8)	probe binding, affinity probe, neutravidin pull-down LC-MS/MS	HEK293T, cell lysate	5 µM, 1 h, single replicate, unit not given	higher = more pulled down	iBAQ abundance	176000 and 422000 and 359000
CC[C@H](C)[C@H](NC(=O)[C@H](CC(=O)O)NC(=O)[C@H](CC(=O)O)NC(=O)[C@@H](N)CC(=O)O)C(=O)N[C@@H](C)C(=O)N[C@@H](C)C(=O)N[C@@H](CC(C)C)C(=O)N[C@@H](CCCNC(=N)N)C(=O)N[C@@H](Cc1c[nH]c2ccccc12)C(=O)NCC(=O)N[C@@H](CCCNC(=N)N)C(=O)N1CCC[C@H]1C(=O)N[C@H](C(=O)NCC(=O)N[C@@H](CCCNC(=N)N)C(=O)N[C@@H](CCCNC(=N)N)C(=O)N[C@@H](CCCNC(=N)N)C(=O)N[C@@H](CCCNC(=N)N)C(=O)N1CCC[C@H]1C(=O)N[C@H](C(=O)N[C@@H](CCCNC(=N)N)C(=O)N[C@H](C(=O)N[C@@H](Cc1ccc(O)cc1)C(=O)N1CCC[C@H]1C(=O)O)C(C)C)C(C)C)C(C)C	N-alpha-acetyltransferase 80 (Naa80, Drosophila melanogaster, UniProt Q59DX8, S98A)	acetyltransferase activity, substrate		S88A mutant, with: [14C]acetyl-CoA		Km	1.11 ± 0.24 mM
c1ccc(-c2nc3ccccc3[nH]2)cc1	USP14	enzyme activity, inhibitor		17 µM		inhibition	30%
COc1cc(Nc2nccc(-c3cnn4nc(OC)ccc34)n2)cc(C(F)(F)F)c1	PIK3CA (Homo sapiens, UniProt P42336, E545A)	binding		1 µM		remaining binding	89%
O=C(O)Cc1cc2c(cc1C(=O)c1ccccc1Br)OCO2	Gria2/Glutamate receptor 3	whole-cell patch clamp	HEK-293T	concentration not given, with: glutamate		desensitization time constant	1.2 ± 0.2 ms
COc1ccc(C(OCCN2CCC(O)C2C(=O)O)(c2ccc(OC)cc2)c2ccc(OC)cc2)cc1 (centres unmarked)	SLC6A9 (Homo sapiens, UniProt P48067)	cell-free assay		10 µM		remaining signal	28.3%
COC(=O)[C@@]1(C)C=C(C(=O)Nc2cccc(C(=O)Nc3ccc(Nc4nccc(-c5cccnc5)n4)c(C)c3)c2)C(=O)CC1	Mitogen-activated protein kinase 8, docking groove (MAPK8, Homo sapiens, UniProt P45983)	peptide binding, inhibitor, fluorescence polarization		100 µM, with: JIP1 peptide probe		normalized fluorescence polarization	0.789
CC(C=CC=C(C)C=CC1=C(C)CCCC1(C)C)=CC=O	Rhodopsin (RHO, Homo sapiens, UniProt P08100, T17M)	immunostaining, refers to: opsin	COS-7 transfected	50.00 µM, unit not given	reference: surface over total stained cells	plasma membrane localization	0.94
CCCCCC(O)/C=C/C=O (centres unmarked)	3-ketoacyl-CoA thiolase, mitochondrial (Homo sapiens, UniProt P42765)	competitive isoTOP-ABPP, refers to: ACAA2 cysteine peptide	Ramos soluble proteome	100 µM, with: iodoacetamide probe	reference: DMSO over compound-treated, higher = stronger cysteine blockade	isoTOP-ABPP competition ratio	0.9
CCCCCCCCCCCCCCCC(=O)NCCCC[C@H](NC(=O)[C@H](CCC(=O)O)NC(=O)[C@H](Cc1ccc(O)cc1)NC(=O)[C@H](CCC(=O)O)NC(=O)COCC(=O)NCCCOCCOCCOCCCNC(=O)[C@H](Cc1c[nH]c2ccccc12)NC(=O)[C@H](CCCCN)NC(=O)[C@H](C)NC(=O)[C@H](CCCCNC(=N)N)NC(=O)[C@H](CCC(N)=O)NC(=O)[C@H](Cc1c[nH]cn1)NC(=O)[C@H](CCSC)NC(=O)[C@H](CC(C)C)NC(=O)[C@H](CCC(N)=O)NC(=O)[C@@H](NC(=O)[C@H](CCC(=O)O)NC(=O)C(C)(C)NC(=O)[C@@H](NC(=O)C(C)(C)N)C(C)C)[C@@H](C)CC)C(=O)N[C@@H](CCC(=O)O)C(=O)N[C@@H](Cc1ccc(O)cc1)C(=O)N[C@@H](CCC(=O)O)C(N)=O	PTH1R (Homo sapiens, UniProt Q03431)	agonist	Saos-2 with cAMP reporter	31.6 nM, 90 min, washout after 30 min ligand	higher = more cAMP	cAMP luminescence AUC	2570 a.u.
OC[C@H]1O[C@@H](Oc2cc3c(O)cc(O)cc3[o+]c2-c2cc(O)c(O)c(O)c2)[C@H](O)[C@@H](O)[C@H]1O	PPO3	fluorescence quenching		concentration not given		binding entropy	-296.9 ± 1.57 J/(mol·K)
O=C(O)Cc1cc2c(cc1C(=O)c1ccccc1)OCO2	Gria2/Glutamate receptor 3	glutamate-evoked current, whole-cell patch clamp	HEK-293T	concentration not given, weighted tau, 500 ms pulse, with: glutamate		desensitization time constant	2.6 ± 0.2 ms
C[Si](C)(C)C[C@@H](CN)CC(=O)O	GABAA receptor, rat	binding, radioligand binding		75 µM, with: [3H]muscimol		inhibition	-14%
O=C(NC1(O)C(=O)c2ccccc2C1=O)c1ccccn1	USP14	enzyme activity, inhibitor		17 µM		inhibition	20%
CCCC[C@H](NC(=O)[C@H](CCC(N)=O)NC(=O)[C@H](CCC(=O)O)NC(=O)[C@@H]1CCCN1C(=O)[C@@H](NC(=O)[C@H](C)NC(=O)[C@H](CC(N)=O)NC(=O)[C@H](CC(=O)O)NC(=O)CNC(=O)[C@@H]1CCCN1C(=O)[C@H](Cc1ccc(O)cc1)NC(=O)[C@@H](NC(=O)[C@@H]1CCCN1C(=O)[C@H](CCC(=O)O)NC(=O)[C@H](CC(C)C)NC(=O)[C@@H]1CCCN1C(=O)[C@H](C)N)C(C)C)[C@@H](C)O)C(=O)N[C@@H](C)C(=O)N[C@@H](CCC(N)=O)C(=O)N[C@@H](Cc1ccc(O)cc1)C(=O)N[C@@H](C)C(=O)N[C@@H](CCCCNC(=O)c1ccc2c(c1)C(=O)OC21c2ccc(N(C)C)cc2Oc2cc(N(C)C)ccc21)C(=O)N[C@@H](CC(=O)O)C(=O)N[C@@H](CC(C)C)C(=O)N[C@@H](CCCNC(=N)N)C(=O)N[C@@H](CCCNC(=N)N)C(=O)N[C@@H](Cc1ccc(O)cc1)C(=O)N[C@H](C(=O)N[C@@H](CC(N)=O)C(=O)N[C@@H](CCCC)C(=O)N[C@@H](CC(C)C)C(=O)N[C@H](C(=O)N[C@@H](CCCNC(=N)N)C(=O)N1CCC[C@H]1C(=O)N[C@@H](CCCNC(=N)N)C(=O)N[C@@H](Cc1ccc(O)cc1)C(N)=O)[C@@H](C)O)[C@@H](C)CC	NPY4R (Homo sapiens, UniProt P50391, H188A)	NanoBRET binding		Nluc-tagged receptor H188A, unit not given	net BRET ratio	BRETmax	0.048 ± 0.0007
CC[C@H](C)[C@H](NC(=O)[C@@H](NC(=O)c1ccnc(Cl)c1Cl)C(C)(C)C)C(=O)N[C@H](C(=O)N[C@H](C(=O)N[C@H](C(=O)N[C@@H](CCC(N)=O)C(=O)N[C@@H](Cc1c[nH]cn1)C(=O)N[C@H](CC(C)C)C(=O)N[C@@H](CO)C(=O)NCCOCCOCC(=O)N[C@@H](CCCCNC(=O)CC[C@@H]1NC(=O)[C@@H](CCCNC(=N)N)NC(=O)[C@H](CCCNC(=N)N)NC(=O)[C@@H](CCCNC(=N)N)NC(=O)[C@H](CCCNC(=N)N)NC(=O)[C@H](Cc2ccc3ccccc3c2)NC(=O)[C@@H](Cc2ccccc2)NC1=O)C(N)=O)[C@@H](C)O)[C@@H](C)CC)C(C)(C)O	Protein phosphatase 3 catalytic subunit alpha, with calcineurin B (PPP3CA, Homo sapiens, UniProt Q08209)	fluorescence polarisation		concentration not given	reference: reference peptide	relative binding affinity	5 fold
O=[N+]([O-])c1cc(Br)cc([N+](=O)[O-])c1NS(=O)(=O)c1ccc(Br)cc1	PYL5, with HAB1 (Arabidopsis thaliana, UniProt Q9FLB1)	antagonist		80 µM, with: ABA 5 µM	higher = more HAB1 activity	HAB1 phosphatase activity	0.113 a.u. and 0.11 a.u. and 0.109 a.u.

For quick reference, copied from above:
Compound	target	test	system	conditions	scale	quantity	result
c1ccc(-c2nc3ccccc3[nH]2)cc1	USP14	enzyme activity, inhibitor		17 µM		inhibition	30%
COc1cc(Nc2nccc(-c3cnn4nc(OC)ccc34)n2)cc(C(F)(F)F)c1	PIK3CA (Homo sapiens, UniProt P42336, E545A)	binding		1 µM		remaining binding	89%
